Measured values from different studies.
Each numbered part is a random draw from the data of one study; scales do not carry over between parts. Changes are numbered by the printed parent chain.
Chain of UniProt P29376 (whole entry, looked up): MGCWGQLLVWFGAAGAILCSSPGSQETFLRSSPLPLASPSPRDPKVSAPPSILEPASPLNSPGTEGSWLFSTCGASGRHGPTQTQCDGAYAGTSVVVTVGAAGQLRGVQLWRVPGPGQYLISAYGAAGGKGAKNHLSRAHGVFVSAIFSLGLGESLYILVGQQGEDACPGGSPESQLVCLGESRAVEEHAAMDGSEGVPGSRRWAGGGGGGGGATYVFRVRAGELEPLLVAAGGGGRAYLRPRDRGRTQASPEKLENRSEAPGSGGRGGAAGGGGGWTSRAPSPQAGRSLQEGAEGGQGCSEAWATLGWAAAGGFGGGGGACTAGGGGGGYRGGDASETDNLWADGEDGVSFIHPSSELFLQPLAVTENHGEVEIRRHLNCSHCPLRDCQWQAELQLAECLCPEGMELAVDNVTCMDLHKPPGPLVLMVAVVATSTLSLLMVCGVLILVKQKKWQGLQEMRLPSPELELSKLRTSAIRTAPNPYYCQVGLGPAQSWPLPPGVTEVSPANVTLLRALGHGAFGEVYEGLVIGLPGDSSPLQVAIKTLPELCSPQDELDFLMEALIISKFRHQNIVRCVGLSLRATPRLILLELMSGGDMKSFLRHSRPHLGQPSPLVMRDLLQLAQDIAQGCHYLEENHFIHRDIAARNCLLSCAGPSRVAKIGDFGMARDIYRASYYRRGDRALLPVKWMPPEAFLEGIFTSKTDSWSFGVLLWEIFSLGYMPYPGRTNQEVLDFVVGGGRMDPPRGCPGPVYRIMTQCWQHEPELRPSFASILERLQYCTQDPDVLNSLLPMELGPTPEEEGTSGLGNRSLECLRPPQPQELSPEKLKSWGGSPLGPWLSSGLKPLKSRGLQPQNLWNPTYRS

Series 1
Target: Prothrombin, mature alpha-thrombin (F2, Homo sapiens, UniProt P00734)
Technique: aptamer microarray, sandwich
Molecule type: DNA with 2'F-ANA
Medium: in vitro
Concentration: 200 nM
Notes: whole 15-mer aptamer, many near background
Added: Cy3 exosite-II aptamer, 400 nM
Reading: higher = stronger binding
Endpoint: mean fluorescence intensity
Strand: GGTTGGTGTGGTTGG
Modification = 2'F-ANA at 1 2 3 5 7 8 10 13 14 15; result = 45.5 a.u.
Modification = 2'F-ANA at 2 4 5 9 12 13 14; result = 49.2 a.u.
Modification = 2'F-ANA at 2 3 4 5 9 10 11 15; result = 53.2 a.u.
Modification = 2'F-ANA at 1 4 6 7 10 11 12 15; result = 57.9 a.u.
Modification = 2'F-ANA at 3 5 8 11 13; result = 157 a.u.
Modification = 2'F-ANA at 1 2 4 5 10 11 13 14; result = 49.6 a.u.
Modification = 2'F-ANA at 1 2 6 7 8 10 11 12 14; result = 55.4 a.u.
Modification = 2'F-ANA at 2 7 11 12 13; result = 667 a.u.

Series 2
Target: Ras GTPase-activating protein-binding protein 1, RRM domain (G3BP1, Homo sapiens, UniProt Q13283)
Chain of UniProt Q13283 (whole entry, looked up): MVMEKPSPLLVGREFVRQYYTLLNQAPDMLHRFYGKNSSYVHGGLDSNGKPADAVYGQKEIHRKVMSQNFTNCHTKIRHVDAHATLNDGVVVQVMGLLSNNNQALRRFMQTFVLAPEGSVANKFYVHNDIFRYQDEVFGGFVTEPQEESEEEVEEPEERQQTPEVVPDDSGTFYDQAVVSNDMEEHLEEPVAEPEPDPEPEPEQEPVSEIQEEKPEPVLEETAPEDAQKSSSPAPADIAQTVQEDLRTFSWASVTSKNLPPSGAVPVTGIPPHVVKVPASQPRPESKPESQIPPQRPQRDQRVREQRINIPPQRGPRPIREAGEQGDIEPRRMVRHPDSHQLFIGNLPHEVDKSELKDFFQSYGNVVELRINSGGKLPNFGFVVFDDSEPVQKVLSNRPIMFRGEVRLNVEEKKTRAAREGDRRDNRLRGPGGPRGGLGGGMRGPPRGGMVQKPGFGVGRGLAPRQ
Technique: RNA Bind-n-Seq
Molecule type: RNA
Medium: in vitro
Concentration: 1 µM
Notes: whole 134-nt RNA, ends assumed
Added: 150 mM KCl
Reference: input library
Reading: higher = stronger binding
Endpoint: log2 enrichment
Strand = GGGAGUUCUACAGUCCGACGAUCCAAGUCCUGUGCUACACAUCGUAUGUACCGAAUCGGGGAAAGGAAAGGGGAAAGGAAAGUAUUAUGUUACGCCGUUCGGAUCUGCACUUCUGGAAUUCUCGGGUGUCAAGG; result = -0.267
Strand = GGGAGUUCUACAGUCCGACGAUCACUGAUGAGAGCCUGAGGAGCCAUUUUGAGCAAUGGGGAACGCUCACGGACUGUGUGGUAAGAUUUGGAAGGGACAAAGCAGUAAAACAGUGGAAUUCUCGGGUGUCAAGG; result = -0.0793
Strand = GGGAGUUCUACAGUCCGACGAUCCCUGUGCUACACAUCGUAUGUACCGAAUCGGGGAAAAAAAGGGGAAAAAGGGGUUUGGGGAAAGUAUUAUGUUACGCCGUUCGGAUCUGCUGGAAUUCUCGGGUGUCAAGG; result = 0.783
Strand = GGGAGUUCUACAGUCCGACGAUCUGGUUUUGGUGCCUGGCAUCGAAGAUGGUGUGUUCUUUCUGGAAACUGUAUAUCUUAUUGGACUUAUCCAGAUGAUGAGAAACGCAAGGUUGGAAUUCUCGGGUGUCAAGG; result = -0.133
Strand = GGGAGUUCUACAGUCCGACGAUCUAACUUUAGAGGAGUAUCUGAUGGAUAUGGCAGUGGACGUGGAUUUGGGGAUGGCUAUAAUGGGUAUGGAGGAGGACCUGGAGGUGGCAAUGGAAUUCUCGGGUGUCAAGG; result = -0.359
Strand = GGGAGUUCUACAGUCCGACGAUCCCUGUGCUACACAUCGUAUGUACCGAAUCAAACCCCCAAAUUUUUUUAAACCCCCCCAAAAAAGUAUUAUGUUACGCCGUUCGGAUCUGCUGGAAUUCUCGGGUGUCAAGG; result = -0.571
Strand = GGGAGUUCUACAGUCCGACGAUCCAAGUCCUGUGCUACACAUCGUAUGUACCGAAUCGGGGUGGGGUUUGGGGAGGGGAAAGUAUUAUGUUACGCCGUUCGGAUCUGCACUUCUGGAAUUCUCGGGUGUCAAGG; result = 1.4
Strand = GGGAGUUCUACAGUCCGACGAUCUAACUUUAGAGGAGGAUCUGAUGGAUAUGGCAGUGGACGUGGAUCUGGGGAUGGCUAUAAUGGGUAUGGAGGAGGACCUGGAGGUGGCAAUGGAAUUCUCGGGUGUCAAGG; result = -0.573

Series 3
Target: CCNA2, cyclin fold, Cln2 fusion (human)
Technique: yeast growth competition, sequencing
Medium: yeast
Notes: strong parent motif
Reference: not given
Reading: higher = stronger binding
Endpoint: normalised enrichment score
Starting sequence: viral docking peptide; TSVRRALFTGGSD; partner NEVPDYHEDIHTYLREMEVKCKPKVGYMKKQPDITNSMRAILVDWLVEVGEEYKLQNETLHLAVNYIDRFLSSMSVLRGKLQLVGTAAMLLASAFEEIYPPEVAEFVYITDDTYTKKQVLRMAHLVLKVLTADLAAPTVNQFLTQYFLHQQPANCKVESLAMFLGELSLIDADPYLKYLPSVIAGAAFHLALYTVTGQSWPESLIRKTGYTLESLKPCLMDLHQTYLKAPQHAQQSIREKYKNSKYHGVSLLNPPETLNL
Variant = TSVRRALFTGGRD [S12R]; result = 6.23
Variant = TSVRRPLFTGGSD [A6P]; result = 3.46
Variant = TSVRRALFTTGSD [G10T]; result = 6.16
Variant = TSVRRALFTGSSD [G11S]; result = 6.29
Variant = TSVRRGLFTGGSD [A6G]; result = 4.5
Variant = TSVRRALFTCGSD [G10C]; result = 6.28
Variant = THVRRALFTGGSD [S2H]; result = 6.37
Variant = TSVRRALFTGGLD [S12L]; result = 5.87
Variant = TSVRGALFTGGSD [R5G]; result = 0.336
Variant = TSVRRALFTGGDD [S12D]; result = 6.44
Variant = TSVRRALFTGRSD [G11R]; result = 6.1
Variant = TSVRRALFKGGSD [T9K]; result = 6.22
Variant = TSVRRDLFTGGSD [A6D]; result = 1.87
Variant = TSVRRALFTGGHD [S12H]; result = 6.46
Variant = TSVRRLLFTGGSD [A6L]; result = 3.95
Variant = TSVRAAAFTGGSD [R5A L7A]; result = -0.166
Variant = TSVGRALFTGGSD [R4G]; result = 0.378
Variant = TSVLRALFTGGSD [R4L]; result = 1.18
Variant = TSVRRALFTNGSD [G10N]; result = 6.34
Variant = TSVRRADFTGGSD [L7D]; result = -0.0231
Variant = TSVRRALFTRGSD [G10R]; result = 6.12
Variant = TSVRRALFTGGAD [S12A]; result = 5.92

Series 4
Target: Krueppel-like factor 3, full length (KLF3, Homo sapiens, UniProt P57682, residues 1-345)
Chain of UniProt P57682 (whole entry, looked up): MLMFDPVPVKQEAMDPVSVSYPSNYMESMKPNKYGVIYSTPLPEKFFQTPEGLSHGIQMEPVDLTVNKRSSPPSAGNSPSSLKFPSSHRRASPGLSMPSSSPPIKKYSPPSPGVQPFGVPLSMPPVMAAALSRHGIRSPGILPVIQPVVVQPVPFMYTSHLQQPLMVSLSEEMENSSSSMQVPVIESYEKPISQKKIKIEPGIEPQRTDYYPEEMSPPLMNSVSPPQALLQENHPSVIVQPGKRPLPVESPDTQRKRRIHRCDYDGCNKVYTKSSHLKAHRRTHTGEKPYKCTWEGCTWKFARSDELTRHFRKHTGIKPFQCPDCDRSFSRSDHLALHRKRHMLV
Technique: protein-binding microarray
Molecule type: hairpin DNA
Medium: in vitro
Concentration: not given
Notes: whole hairpin DNA, median over replicate spots
Reference: not given
Reading: higher = stronger binding
Endpoint: median fluorescence
Shared flanks, not repeated: GAGGCCG … CGGCCTCACACTC
Strand = ACCACGCCCAGCCTCCTGGCTGGGCGTGGT (5mC at 12); result = 9210 a.u.
Strand = TCCGCGCCCAGCCTCCTGGCTGGGCGCGGA; result = 8440 a.u.
Strand = ACCACGCCGAGCCTCCTGGCTCGGCGTGGT (5mC at 15); result = 9670 a.u.
Strand = ACCGCGACCAGCCTCCTGGCTGGTCGCGGT; result = 8620 a.u.
Strand = ACCGCGCCCAGCCTCCTGGCTGGGCGCGGT (5mC at 10 12 32 34); result = 8510 a.u.
Strand = CGCACGCCCAGCCTCCTGGCTGGGCGTGCG (5mC at 8 36); result = 9370 a.u.
Strand = ACCCGGCCCAGCCTCCTGGCTGGGCCGGGT (5mC at 11); result = 8160 a.u.
Strand = ACAACGCCCAGCCTCCTGGCTGGGCGTTGT; result = 8040 a.u.

Other studies, line by line
Structure (SMILES) = Cc1cccc(-c2[nH]c(C(C)(C)C)nc2-c2ccc3c(c2)OCO3)n1; target = Leukocyte tyrosine kinase receptor (LTK, Homo sapiens, UniProt P29376); assay = enzyme activity, inhibitor, radiometric; setting = 0.5 µM; endpoint = remaining activity; result = 99.2%

Excerpt of the above (series 4):
Strand = ACCCGGCCCAGCCTCCTGGCTGGGCCGGGT (5mC at 11); result = 8160 a.u.
Strand = TCCGCGCCCAGCCTCCTGGCTGGGCGCGGA; result = 8440 a.u.
Strand = ACCACGCCCAGCCTCCTGGCTGGGCGTGGT (5mC at 12); result = 9210 a.u.
Strand = ACAACGCCCAGCCTCCTGGCTGGGCGTTGT; result = 8040 a.u.
